Results from different studies.
Protocols differ between the studies behind these lines. ± marks the error that the study gave.
Sample: plasma

CC1(C)C2CCC1(C)C(OC(=O)/C=C/c1ccc(O)c(O)c1)C2 (centres unmarked) — terminal half-life (Sprague-Dawley rat; oral gavage, 30 mg/kg): 202 ± 14.4 min
COc1cc(NC(C)=O)c2c(c1O)-c1c(OC)c(OC)cc3c1C(C2)N(C)CC3 (centres unmarked) — terminal slope (Wistar rat male; oral, 200 mg/kg): 0.367 ± 0.092
COC(=O)C(CSC1CC(=O)N(CCC(=O)O)C1=O)NC(=O)CCC(NC(=O)c1ccc(NCc2cnc3nc(N)nc(N)c3n2)cc1)C(=O)O (centres unmarked) — terminal half-life (female Lewis rats; subcutaneous, 500 nmol/kg of parent drug): 60 min
CC(C)C[C@@H]1NC(=O)CNC(=O)[C@H](CC(N)=O)NC(=O)[C@H](CCCNC(=N)N)NC(=O)[C@H]([C@@H](C)O)NC(=O)[C@@H]2CSSC[C@@H]3NC(=O)[C@H]([C@@H](C)O)NC(=O)CNC(=O)CNC(=O)[C@H](C(C)C)NC(=O)[C@@H]4CSSC[C@H](NC(=O)[C@H]([C@@H](C)O)NC(=O)[C@H](CSSC[C@H](NC(=O)[C@H](C(C)C)NC(=O)[C@@H]5CCCN5C1=O)C(=O)NCC(=O)N[C@@H](CCC(=O)O)C(=O)N[C@@H]([C@@H](C)O)C(=O)N4)NC(=O)CNC(=O)[C@@H]1CCCN1C(=O)[C@H]([C@@H](C)O)NC(=O)[C@H](CC(N)=O)NC3=O)C(=O)N[C@@H](CO)C(=O)N[C@@H](Cc1c[nH]c3ccccc13)C(=O)N1CCC[C@H]1C(=O)N[C@@H](C(C)C)C(=O)N2 — terminal half-life (Sprague Dawley rat, male; intravenous infusion, 1 mg/kg, 10 min infusion): 113 min
Cc1cnc(Nc2cc(C)c(C)c(C)c2)nc1Nc1ccc2oc(=O)[nH]c2c1 — terminal half-life (rat; intravenous, 1.0 mg/kg): 234 min
CO[C@@H]1[C@H](OC(=O)N[C@H]2CC[C@H](N)CC2)CC[C@]2(CO2)[C@H]1[C@@]1(C)O[C@@H]1CC=C(C)C — terminal half-life (Sprague-Dawley rat, male; intravenous bolus): 10 to 15 min
CNC(=O)N[C@]1(C)CCC[C@@]2(C)C3CC[C@@]4(C)C[C@]3(CCC21)CC4=O (single isomer, unassigned) — terminal volume of distribution (Sprague-Dawley rat, male; intravenous, 2 mg/kg): 1.59 ± 0.45 L
Cc1cc(O)c2c(c1)C(=O)c1cc(O)cc(O)c1C2=O.Cc1cc(O)c2c(c1)C(=O)c1cc(O)cc(O)c1C2=O.Cc1nc(C)c(C)nc1C — terminal half-life (Sprague Dawley rat; oral, 100 mg/kg, alone or as equimolar cocrystal): 222 ± 131 min

Repeated from above:
Cc1cc(O)c2c(c1)C(=O)c1cc(O)cc(O)c1C2=O.Cc1cc(O)c2c(c1)C(=O)c1cc(O)cc(O)c1C2=O.Cc1nc(C)c(C)nc1C — terminal half-life (Sprague Dawley rat; oral, 100 mg/kg, alone or as equimolar cocrystal): 222 ± 131 min
